Measurements gathered from unrelated publications.
Each numbered part is a random draw from the data of one study; scales do not carry over between parts.

Sample 1 — method: universal PBM; molecule type: double-stranded DNA, one strand shown; matrix: in vitro; concentration: 600 nM; direction: higher = stronger binding
Target: Sal-like protein 4, full length isoform A (SALL4, Homo sapiens, UniProt Q9UJQ4, residues 1-1053)
Chain of UniProt Q9UJQ4 (whole entry, looked up): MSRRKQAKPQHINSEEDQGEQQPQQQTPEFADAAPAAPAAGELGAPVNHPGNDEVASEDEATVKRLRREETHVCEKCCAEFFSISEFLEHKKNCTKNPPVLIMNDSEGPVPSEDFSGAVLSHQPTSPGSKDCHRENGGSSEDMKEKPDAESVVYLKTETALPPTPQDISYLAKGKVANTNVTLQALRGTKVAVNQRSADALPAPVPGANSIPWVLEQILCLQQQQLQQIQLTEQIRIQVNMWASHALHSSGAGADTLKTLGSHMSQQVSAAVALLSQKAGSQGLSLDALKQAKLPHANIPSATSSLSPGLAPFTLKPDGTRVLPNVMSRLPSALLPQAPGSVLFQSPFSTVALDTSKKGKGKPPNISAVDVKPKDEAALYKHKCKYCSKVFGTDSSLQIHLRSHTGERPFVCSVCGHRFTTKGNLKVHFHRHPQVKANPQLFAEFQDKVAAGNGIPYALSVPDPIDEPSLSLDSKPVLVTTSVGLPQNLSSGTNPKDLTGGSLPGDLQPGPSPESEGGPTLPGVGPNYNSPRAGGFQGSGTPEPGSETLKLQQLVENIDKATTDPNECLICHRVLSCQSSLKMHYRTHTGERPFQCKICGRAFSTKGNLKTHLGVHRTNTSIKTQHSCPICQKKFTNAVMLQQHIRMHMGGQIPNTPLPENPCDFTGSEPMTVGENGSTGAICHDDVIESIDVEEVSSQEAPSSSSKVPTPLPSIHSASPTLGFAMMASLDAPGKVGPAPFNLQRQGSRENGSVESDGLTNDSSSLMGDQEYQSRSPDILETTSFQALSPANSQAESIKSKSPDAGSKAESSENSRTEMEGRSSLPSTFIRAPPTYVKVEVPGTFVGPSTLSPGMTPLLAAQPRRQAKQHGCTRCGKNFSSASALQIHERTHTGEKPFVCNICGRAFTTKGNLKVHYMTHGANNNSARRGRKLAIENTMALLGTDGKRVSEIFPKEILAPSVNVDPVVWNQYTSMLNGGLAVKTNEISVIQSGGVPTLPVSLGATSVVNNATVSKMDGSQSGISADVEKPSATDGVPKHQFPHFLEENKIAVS
Notes: 8-mer, flanks averaged, mean of replicates
For `CGCGACAA`, the E-score was 0.0168.
The E-score of `AGAGGCAT` is reported as -0.0507.
For `GAAATGCA`, the E-score was 0.134.
The E-score of `ATCAGCCC` is reported as -0.143.
With `CTACCTTA` the E-score was 0.021.
`AGTGATTA` gave an E-score of 0.172.
`AAACTTAA` gave an E-score of 0.276.
For `AAGCCCCT`, the E-score was -0.21.
`CGCTAAAG` has an E-score of -0.0211.
`GAGGGCGA` gave an E-score of -0.299.
With `GCTCCGCC` the E-score was -0.355.

Sample 2 — method: aptamer microarray, sandwich; molecule type: DNA with 2'F-ANA; matrix: in vitro; concentration: 200 nM; added: Cy3 exosite-II aptamer, 400 nM; direction: higher = stronger binding; strand: GGTTGGTGTGGTTGG
Target: Prothrombin, mature alpha-thrombin (F2, Homo sapiens, UniProt P00734)
Notes: whole 15-mer aptamer, many near background
Under “mean fluorescence intensity”, `2'F-ANA at 1 3 4 5 7 9 13` is recorded as 112 a.u.
`2'F-ANA at 1 2 3 7 12 13 15`: “mean fluorescence intensity” 402 a.u.
For `2'F-ANA at 1 4 6 8 11 12 13`, “mean fluorescence intensity” read 171 a.u.
Under “mean fluorescence intensity”, `2'F-ANA at 1 3 5 6 8 10 11 13 15` is recorded as 49.3 a.u.
`2'F-ANA at 2 3 4 6 11 12 14`: “mean fluorescence intensity” 269 a.u.
Under “mean fluorescence intensity”, `2'F-ANA at 3 4 5 7 8 10 13 15` is recorded as 50.1 a.u.
For `2'F-ANA at 3 7 9 10 14`, “mean fluorescence intensity” read 463 a.u.
Under “mean fluorescence intensity”, `2'F-ANA at 2 3 5 9 11 12 13 15` is recorded as 120 a.u.
`2'F-ANA at 1 2 4 5 9 10 11 12 13` — result for “mean fluorescence intensity”: 49.9 a.u.
Under “mean fluorescence intensity”, `2'F-ANA at 4 5 8 10 11 15` is recorded as 59.6 a.u.
`2'F-ANA at 1 3 4 5 6 8 9 10 13 14`: “mean fluorescence intensity” 82.9 a.u.
Under “mean fluorescence intensity”, `2'F-ANA at 1 3 5 6 8 9 12 13` is recorded as 84.2 a.u.

Sample 3 — method: RNA Bind-n-Seq; molecule type: RNA; matrix: in vitro; concentration: 20 nM; notes: 6-mer, flanks averaged, single round; added: 150 mM LiCl; reference: input library; direction: higher = stronger binding
Target: TAR DNA-binding protein 43, full length, His tag (TARDBP, Homo sapiens, UniProt Q13148, residues 1-414)
Under “6-mer enrichment (R)”, `UAAUCU` is recorded as 0.89.
For `GAAGGU`, “6-mer enrichment (R)” read 1.05.
`GGGGUG`: “6-mer enrichment (R)” 1.64.
`CUACAA`: “6-mer enrichment (R)” 0.843.
Under “6-mer enrichment (R)”, `CUUACG` is recorded as 0.841.
Under “6-mer enrichment (R)”, `AGCCAA` is recorded as 0.867.
`UCUGGA`: “6-mer enrichment (R)” 0.91.
Under “6-mer enrichment (R)”, `CACCAU` is recorded as 0.992.
Under “6-mer enrichment (R)”, `GACAUU` is recorded as 0.903.

Mixed results
`PhoQ, residues 284 288 289 292 302 303 AMDMFI` has a fold induction of 0.955 (PhoP, residues 12 14 15 18 19 AQCLL (Escherichia coli, UniProt P23836); Sort-seq, item: YFP reporter; E. coli; PhoQ-PhoP variant library, added: 10 µM Mg2+; reference: high Mg2+ state, higher = stronger signaling).

Excerpt of the above (sample 2):
`2'F-ANA at 1 3 4 5 6 8 9 10 13 14`: “mean fluorescence intensity” 82.9 a.u.
Under “mean fluorescence intensity”, `2'F-ANA at 2 3 5 9 11 12 13 15` is recorded as 120 a.u.
Under “mean fluorescence intensity”, `2'F-ANA at 4 5 8 10 11 15` is recorded as 59.6 a.u.
Under “mean fluorescence intensity”, `2'F-ANA at 3 4 5 7 8 10 13 15` is recorded as 50.1 a.u.
`2'F-ANA at 1 2 4 5 9 10 11 12 13` — result for “mean fluorescence intensity”: 49.9 a.u.
